Measured values pooled from the literature.
Parts stem from different laboratories: compare values within a part only. Positions count from the first letter of the parent shown.

Block 1
Target: CCND1, cyclin fold, Cln2 fusion (human)
Method: yeast growth competition, sequencing
Medium: yeast
Notes: weak parent motif
Reference: not given
Direction: higher = stronger binding
Starting sequence: GMNC docking peptide (human); KNAKRNLSSEFAN; partner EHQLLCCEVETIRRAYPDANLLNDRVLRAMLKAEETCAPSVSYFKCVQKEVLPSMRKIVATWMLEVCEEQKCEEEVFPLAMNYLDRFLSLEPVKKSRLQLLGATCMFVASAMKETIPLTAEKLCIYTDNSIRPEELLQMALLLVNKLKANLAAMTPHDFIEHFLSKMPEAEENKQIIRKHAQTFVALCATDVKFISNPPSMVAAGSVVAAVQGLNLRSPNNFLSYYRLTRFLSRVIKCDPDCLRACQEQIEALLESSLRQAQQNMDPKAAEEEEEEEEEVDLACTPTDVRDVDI
Variant	normalised enrichment score
KNAKRNLSSEWAN [F11W]	0.41
KNAKRNLSSRFAN [E10R]	0.511
KNAKRNDSSEFAN [L7D]	0.428
KNAKRNLSSEVAN [F11V]	0.0605
KNAKRNLWSEFAN [S8W]	0.215
KNAKSNLSSEFAN [R5S]	0.0317
KNAKRNYSSEFAN [L7Y]	-0.0642
KNAKRNLSIEFAN [S9I]	0.681
KNAKRNLMSEFAN [S8M]	1.73

Block 2
Target: RING finger protein unkempt homolog, zinc fingers 1-6, GST-SBP tag (UNK, Homo sapiens, UniProt Q9C0B0, residues 30-357)
Chain of UniProt Q9C0B0 (30-357, looked up): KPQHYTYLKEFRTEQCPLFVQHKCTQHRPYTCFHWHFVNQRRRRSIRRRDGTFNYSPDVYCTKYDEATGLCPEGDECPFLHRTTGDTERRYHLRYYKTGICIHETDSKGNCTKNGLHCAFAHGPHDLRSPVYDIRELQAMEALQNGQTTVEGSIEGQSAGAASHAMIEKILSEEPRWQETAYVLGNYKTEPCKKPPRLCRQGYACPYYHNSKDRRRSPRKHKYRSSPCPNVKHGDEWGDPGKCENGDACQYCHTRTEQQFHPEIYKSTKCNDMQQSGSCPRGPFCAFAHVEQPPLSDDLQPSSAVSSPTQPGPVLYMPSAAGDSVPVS
Method: RNA Bind-n-Seq
Form: RNA
Medium: in vitro
Tested at: not given
Notes: RNA with constant flanks, human and mouse sites, ends assumed
Reference: input RNA pool
Direction: higher = stronger binding
Constant ends, left off below: GGGAGUUCUACAGUCCGACGAUC … CAACAGAGGAUUGAGCAUCA
Strand	bound/input enrichment [ratio]
GUUGAUGAAGAAUAUGAGUUAUAUCAAGAUCCCUCACCAUCCAUGGAGUUGUAUCCCUUGUCGCACAUUCAAGAGGCCACUCCUGUGCCCUCUGUGAAUGAACUUCACUUUGGUACACAG	0.124
CGCUUUACAAGUGCUGGACAAGCAUCUAAGAAUAUAAUCCAGCCACCGUCAUGUGUGCUGCAUUAUUACAAUGUUCCGCUGUGUGUCACAGAAGAGACCUUCACAAAGUUGUGUAACGAC	0.173
CCAGUGAGAAAAAGAGUGCUGGAAAAACGUGGAGACGACUUUAAAAAGGAGGGGAAAAUUUAUAGAUUAAGGACUCAAGAUGAUGGUGAAGAUGAAAACAACACUUGGAAUGGAAAUUCC	0.612
AAGAUCGGAUUUCCAGAAACAGCAGAGGAAGAGCUGGAAGAAAUUGCUUCAGAGAAUUCAGAUUCCAUCUAUUCAUCAACUCCUGAAGUUAAGGCCUGAGCAUCAGACGUGUGCUGCCGA	0.143
CCGCAGAAUGUUGGCCAAGUGUCUAACCCUGACCUCGCAUCUAAUUUUGCCCCUGGGAAUAAUUCAAAUUUUACCUCUCCGUUAGAAACGAAUCAUUCGUUUAUUCCACCCCCAAACGCG	0.628
AAAAAAUACAAAGAAAAAUAUAAAGUAAAAGACAGGAUAGAAGAAAAAACAAGAGAUGGAAAGGACAGAGGACGAGAUUUUGAACGACAAAGAGAAAAGAGAGACAAGCCAAGGUCUACU	1.29
AAGGAAUCAACGUUAAUUCAAAAAAAUAUAUUUGACCUUUCCAAUCAUUUAUCUCAGGUAGCACAGAAUACACAGAUAUCUUCUGGUAUGUCCUCAAAGAUAGAAGAUAAUGCAAAUAAU	0.522
GAAAAUGCUUUUGAGCGACUGCUGGACAUUAUUACAGAGGAGGGGAACAGUGACGGAGGUAUAGUAGUGGAAGAUUGUUUGAUUUUACUUCAAAACUUGUUAAAAACCAACAAUUCCAAU	0.633
GCACCAAAAUAUCAGAUAGGAGAAAGAAUUCGAGUCAUCUUGGACAUGGAAGAUAAGACUUUAGCUUUUGAACGUGGAUAUGAGUUCCUGGGGGUUGCUUUUAGAGGACUUCCAAAGGUC	1.04
CCGAUGAACAGGAAAUCAAUGCCUGAGGCUGACUUCAGCUCCUGGACACCCUUAGAAUUCCUAGUUGAAACUUUCCAUGACUGGAUCACAGGGAAAAACCGACCGAGCUCAGGAAGCCUA	0.208
UUCUUCAAACCUGGUAGUCAGUUUUUGUAUUCAACUUUUGGCUAUACCCUACUGGCAGCCAUAGUAGAGAGAGCUUCAGGAUGUAAAUAUUUGGACUAUAUGCAGAAAAUAUUCCAUGAC	0.122

Block 3
Target: ABI1, truncated, D143A, DHFR fusion (Arabidopsis thaliana)
Method: DHFR PCA, deep sequencing
Medium: yeast
Notes: methotrexate growth selection, single substitutions
Added: (+)-ABA 0.0091 µM
Reference: wild-type fitted maximum
Direction: higher = stronger binding
Starting sequence: PYL1, truncated, DHFR fusion (Arabidopsis thaliana); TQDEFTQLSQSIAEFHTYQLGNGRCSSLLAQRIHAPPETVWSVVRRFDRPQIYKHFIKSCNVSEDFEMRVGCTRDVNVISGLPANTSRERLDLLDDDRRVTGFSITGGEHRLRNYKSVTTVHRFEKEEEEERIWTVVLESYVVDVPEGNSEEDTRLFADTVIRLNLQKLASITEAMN; partner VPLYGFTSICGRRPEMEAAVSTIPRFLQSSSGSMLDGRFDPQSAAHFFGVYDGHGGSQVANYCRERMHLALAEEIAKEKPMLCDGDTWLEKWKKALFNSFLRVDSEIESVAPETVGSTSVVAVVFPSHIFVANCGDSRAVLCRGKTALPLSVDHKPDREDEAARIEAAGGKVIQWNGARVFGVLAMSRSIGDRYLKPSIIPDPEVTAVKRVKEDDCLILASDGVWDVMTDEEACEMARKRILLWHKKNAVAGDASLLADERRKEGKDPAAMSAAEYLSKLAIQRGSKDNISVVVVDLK
Variant	relative binding score [%]
K126N	48.1
H16L	-4.69
S42C	-1.52
R163A	14
T1P	27.2
A175S	28
R113N	4.26
I52Q	26.5

Mixed results
Molecule	target	assay	system	conditions	scale	quantity	result
PhoQ, residues 284 288 289 292 302 303 MLMVEA	PhoP, residues 12 14 15 18 19 YHFSH (Escherichia coli, UniProt P23836)	Sort-seq, measured: YFP reporter	E. coli	PhoQ-PhoP variant library, added: 10 µM Mg2+	reference: high Mg2+ state, higher = stronger signaling	fold induction	3.04

A few entries again (block 3):
Variant	relative binding score [%]
T1P	27.2
A175S	28
R113N	4.26
I52Q	26.5
